Measured values from different studies.
Numbered parts are unrelated; each lists some results of a single study.

Study 1 — technique: universal PBM; form: double-stranded DNA, one strand shown; matrix: in vitro; concentration: not given; reading: higher = stronger binding
Target: Sal-like protein 4, full length isoform B (SALL4, Homo sapiens, UniProt Q9UJQ4-2, residues 1-616)
Notes: 8-mer, flanks averaged, mean of replicates
| Sequence | E-score |
| --- | --- |
| ATGGATGA | 0.129 |
| CAAAACAA | 0.108 |
| AGCAGTTG | -0.256 |
| ATTCTCGG | 0.0374 |
| ATCACAGA | 0.0941 |
| TACTTCGA | 0.195 |
| CTCTTCCA | -0.00385 |
| AGTTAAGA | 0.0557 |
| AGTCGGTG | -0.324 |
| AATTAAAG | 0.285 |
| AGAATCCT | -0.0548 |
| GGCACGGA | -0.183 |
| CCCGCTCC | -0.242 |
| GCACCCAA | -0.26 |
| AGGCTATC | -0.0631 |
| ATTGCCGG | -0.211 |
| GACTAGAA | -0.0115 |
| CGAAACAA | 0.0322 |
| CTGAATGA | 0.0695 |
| GCCAGGGC | -0.343 |
| CGAGGGCC | -0.375 |
| CCTACGAA | -0.013 |
| CAATTGGA | 0.0291 |
| AACAGAGA | 0.0083 |
| AACGCCTT | 0.0639 |

Study 2 — technique: RNA Bind-n-Seq; form: RNA; matrix: in vitro; concentration: 365 nM; relative to: no-protein control; reading: higher = stronger binding
Target: RNA binding protein fox-1 homolog 2, RRM domain, GST-SBP tag (RBFOX2, Homo sapiens, UniProt O43251-10, residues 100-194)
Notes: natural RNA segment, single round, ends assumed
Target sequence (chain): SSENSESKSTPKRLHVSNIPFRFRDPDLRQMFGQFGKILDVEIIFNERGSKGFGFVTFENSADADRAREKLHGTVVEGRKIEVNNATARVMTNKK
| Sequence | RBNS enrichment (R) |
| --- | --- |
| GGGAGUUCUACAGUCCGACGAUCCAGACUGGAAUUGUCCCCUCCUUGUUUUGGUACUGGUCCCACCCACUGUGGUCCCCUGGGCCCUGACCCCAGACAUGUAAAUACUCCUCAAAUUUGGAAAAGUUGUCCCAUGGAAUUCUCGGGUGCCAA | 0.593 |
| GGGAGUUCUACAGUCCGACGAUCAACAAAGGGAAACAGAUAUUUGAUAUGAAAGCCAUAUGACAGUAGCUUGUGUCAUGGGGAAACAGUUUCUCCCUCUACUCACAACACUAAAGGGAAAAAGGUGGAUUCAGUGGAAUUCUCGGGUGCCAA | 0.789 |
| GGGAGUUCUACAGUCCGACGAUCCCCUCCCAGUCCACAGGGUCUUCCCACUGCCCCUCCUCUGCCACUGCCACAGAGCAGCUUCCCACCUACCCUAGGGACUCCACAGCUUCUGGCAAGCAGGUGCAGAGUCCUGGAAUUCUCGGGUGCCAA | 0.467 |
| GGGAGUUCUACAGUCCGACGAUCGAGAACAAUUGUUUAUUUUUUCUCUUUGGUUUUAGAUAUUAAUAAUAACAUUACUGGAAUUUUUUUCCAAAGAAACUAUUUUUAUAAUUCAAUAAUUUAACGUUUUCGUUUGGAAUUCUCGGGUGCCAA | 0.855 |
| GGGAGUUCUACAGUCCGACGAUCGGUUAGACAUUUUUAUUUCAUUGACUAACCCAGGACAGUUUCAGUGAUGCAAAUUGUGUGCCCUCUGGUUCAGCUGAAACAGUCCUGGACUUUCAAAAACCUUGAAUAAGUGGAAUUCUCGGGUGCCAA | 0.352 |
| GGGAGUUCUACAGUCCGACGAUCAUCUAGCUCCUGUAUAUAUAUUUUAUUGCAUGCACUGUGACCUUGGGGGGAGAACAGAAGGGGGACGACGCCCCCGCACCUCCUGCGAUCUGGCUGGCUUGGAUCUCGUUUGGAAUUCUCGGGUGCCAA | 10.1 |
| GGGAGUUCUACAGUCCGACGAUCAGUCCUCAAUCCUGUGUCCCAGAGGUCCCUCUGGGCCACAACCCAACCCUUCUCACUCUCCUCAGUGCUAGCACUUUGUAUUUUUUGAUACUUUUAUACUUGUUUCUGCUUGGAAUUCUCGGGUGCCAA | 0.711 |
| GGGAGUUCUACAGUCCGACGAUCCUCACACCCCUUGUGCUAGAGGUGUUCGGCAAUGAGAUCUCCUGACCAGGGUGGCCUGCAGUGGUGCCUGGGUAGGGCCGCUCCUCUGGGGCCCUGUGCCCAGGCCCUGGUGGAAUUCUCGGGUGCCAA | 0.268 |

Study 3 — technique: RNA Bind-n-Seq; form: RNA; matrix: in vitro; concentration: 1 µM; notes: whole 134-nt RNA, ends assumed; added: 150 mM KCl; relative to: input library; reading: higher = stronger binding
Target: Ras GTPase-activating protein-binding protein 1, RRM domain (G3BP1, Homo sapiens, UniProt Q13283)
Sequence of UniProt Q13283 (whole entry, looked up): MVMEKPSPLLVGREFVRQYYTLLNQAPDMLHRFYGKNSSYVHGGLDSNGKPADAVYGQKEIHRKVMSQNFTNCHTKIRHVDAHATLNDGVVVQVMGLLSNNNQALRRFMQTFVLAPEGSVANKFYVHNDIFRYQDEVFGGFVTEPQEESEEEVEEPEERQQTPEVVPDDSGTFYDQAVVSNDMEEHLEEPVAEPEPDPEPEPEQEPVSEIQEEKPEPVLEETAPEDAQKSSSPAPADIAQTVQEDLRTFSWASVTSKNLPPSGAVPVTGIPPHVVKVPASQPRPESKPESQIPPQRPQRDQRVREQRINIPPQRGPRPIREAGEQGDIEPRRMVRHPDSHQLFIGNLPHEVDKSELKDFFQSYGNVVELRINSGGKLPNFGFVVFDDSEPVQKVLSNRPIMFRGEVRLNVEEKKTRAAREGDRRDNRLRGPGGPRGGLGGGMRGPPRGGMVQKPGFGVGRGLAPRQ
| Sequence | log2 enrichment |
| --- | --- |
| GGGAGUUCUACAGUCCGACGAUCCAAGUCCUGUGCUACACAUCGUAUGUACCGAAUCGGGAAAAAGGGAGGGUUUGGGAAAGUAUUAUGUUACGCCGUUCGGAUCUGCACUUCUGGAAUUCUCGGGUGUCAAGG | 0.749 |
| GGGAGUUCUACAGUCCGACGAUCCCUGUGCUACACAUCGUAUGUACCGAAUCGGUUUUUUUGGGUUUUUUUGGGGUUUUUUUGGAAAGUAUUAUGUUACGCCGUUCGGAUCUGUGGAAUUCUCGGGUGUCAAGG | -0.301 |
| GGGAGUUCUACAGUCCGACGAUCCUCAAGUCCUGUGCUACACAUCGUAUGUACCGAAUCGGAAAGGUUUUUGGUGGAAAGUAUUAUGUUACGCCGUUCGGAUCUGCACUUCCAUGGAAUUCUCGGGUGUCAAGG | -0.232 |
| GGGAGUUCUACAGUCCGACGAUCCCUGUGCUACACAUCGUAUGUACCGAAUCGGGGUUUGGGGUUUUUUUGGGGUUUUUGGGGAAAGUAUUAUGUUACGCCGUUCGGAUCUGCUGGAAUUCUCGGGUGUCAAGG | 1.27 |
| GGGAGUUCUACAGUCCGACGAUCCACAGACAACACGCACCCACACAGACACAGAGGGAAGGGGUUGGGAUGGGGACAGGGUGCACAGCAGGGCGGGGUAGGAAACCAGCCCCUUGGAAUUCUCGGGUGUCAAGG | -0.164 |
| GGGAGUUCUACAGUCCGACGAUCCACAGACAACACGCACCCACACAGACACAGAGGGAAGGGGUUGGGAUGGGGACAGGGUGCACAGCAGGCCGGGGUAGGACCCCAGCCCCUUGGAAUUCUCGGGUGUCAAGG | -0.218 |
| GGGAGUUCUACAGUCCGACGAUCGCCUGGCGCUGGCCAACAAUAGCACCCUCACCAUUGGCACCAUCGAUGAGAUCCAGAAGCUGCACAUUCGCACAGUUCCCCUCUAUGAGUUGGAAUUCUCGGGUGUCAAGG | 0.424 |
| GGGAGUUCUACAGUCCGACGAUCUUCCGGAAGAAGAAGCUCCGAUUUGGCCGGAGCCGGAUCCACGAGUGGGGUCUGUUUGCCAUGGAACCCAUUGCUGCUGACGAGAUGGUCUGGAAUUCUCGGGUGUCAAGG | -0.224 |
| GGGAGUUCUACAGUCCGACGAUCGCAGGAAGUAAAAACAAAUGGAAAUGCUUCGGAUACUGGCAGGGGUGGGGGUUGCUAAGGAAAGGGUGGGAUGGGAGUGGGUAAAGAGUUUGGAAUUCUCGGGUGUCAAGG | 1.24 |

Study 4 — technique: protein-binding microarray; form: double-stranded DNA, one strand shown; matrix: in vitro; concentration: not given; reading: higher = stronger binding
Target: Max-binding protein MNT, bHLH-zipper, MAX partner unstated (MNT, Homo sapiens, UniProt Q99583, residues 220-300)
Notes: k-mer, scored over probes, only values ≥0.25
Residues (chain): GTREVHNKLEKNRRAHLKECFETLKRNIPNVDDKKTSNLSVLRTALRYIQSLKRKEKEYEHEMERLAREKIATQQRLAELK
| Sequence | E-score |
| --- | --- |
| CGTGCGCC | 0.397 |
| AGCATGAC | 0.353 |
| ACATGGAA | 0.351 |
| CACGGGGC | 0.35 |
| ACGCGCCT | 0.255 |
| AGGCGTGC | 0.37 |
| ACGTGGCT | 0.45 |
| ATGTGTGG | 0.277 |
| TCACGTGA | 0.489 |
| ACCCGCCC | 0.34 |
| AACCGCGT | 0.346 |
| ACACGCCG | 0.384 |
| CGCAACAC | 0.251 |
| GTCCCCAC | 0.278 |
| ACGCGACG | 0.279 |
| CGGCGTGC | 0.4 |
| ACATGACC | 0.319 |
| ATGCATGA | 0.3 |
| CATCACAC | 0.305 |
| AAGCGTGA | 0.341 |
| CATGCCCG | 0.345 |
| CGTGGCGC | 0.304 |
| ATGCACAC | 0.299 |
| CCGCGCGC | 0.285 |
| CACGCCGA | 0.357 |

Excerpt of the above (study 3):
| Sequence | log2 enrichment |
| --- | --- |
| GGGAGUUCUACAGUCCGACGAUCUUCCGGAAGAAGAAGCUCCGAUUUGGCCGGAGCCGGAUCCACGAGUGGGGUCUGUUUGCCAUGGAACCCAUUGCUGCUGACGAGAUGGUCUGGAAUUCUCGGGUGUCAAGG | -0.224 |
| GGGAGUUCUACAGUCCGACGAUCGCCUGGCGCUGGCCAACAAUAGCACCCUCACCAUUGGCACCAUCGAUGAGAUCCAGAAGCUGCACAUUCGCACAGUUCCCCUCUAUGAGUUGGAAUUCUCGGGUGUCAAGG | 0.424 |
| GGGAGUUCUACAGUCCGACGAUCCCUGUGCUACACAUCGUAUGUACCGAAUCGGGGUUUGGGGUUUUUUUGGGGUUUUUGGGGAAAGUAUUAUGUUACGCCGUUCGGAUCUGCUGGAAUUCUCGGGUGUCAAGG | 1.27 |
| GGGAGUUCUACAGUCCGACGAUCCAAGUCCUGUGCUACACAUCGUAUGUACCGAAUCGGGAAAAAGGGAGGGUUUGGGAAAGUAUUAUGUUACGCCGUUCGGAUCUGCACUUCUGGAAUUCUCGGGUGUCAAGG | 0.749 |
| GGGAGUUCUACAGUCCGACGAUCGCAGGAAGUAAAAACAAAUGGAAAUGCUUCGGAUACUGGCAGGGGUGGGGGUUGCUAAGGAAAGGGUGGGAUGGGAGUGGGUAAAGAGUUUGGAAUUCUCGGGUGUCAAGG | 1.24 |
| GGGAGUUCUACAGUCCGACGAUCCUCAAGUCCUGUGCUACACAUCGUAUGUACCGAAUCGGAAAGGUUUUUGGUGGAAAGUAUUAUGUUACGCCGUUCGGAUCUGCACUUCCAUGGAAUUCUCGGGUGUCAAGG | -0.232 |
| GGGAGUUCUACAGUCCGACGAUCCACAGACAACACGCACCCACACAGACACAGAGGGAAGGGGUUGGGAUGGGGACAGGGUGCACAGCAGGCCGGGGUAGGACCCCAGCCCCUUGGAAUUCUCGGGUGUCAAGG | -0.218 |
| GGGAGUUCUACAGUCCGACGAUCCCUGUGCUACACAUCGUAUGUACCGAAUCGGUUUUUUUGGGUUUUUUUGGGGUUUUUUUGGAAAGUAUUAUGUUACGCCGUUCGGAUCUGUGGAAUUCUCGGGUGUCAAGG | -0.301 |
| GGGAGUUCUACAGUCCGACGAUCCACAGACAACACGCACCCACACAGACACAGAGGGAAGGGGUUGGGAUGGGGACAGGGUGCACAGCAGGGCGGGGUAGGAAACCAGCCCCUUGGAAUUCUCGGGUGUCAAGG | -0.164 |
